Assay results of several laboratories.
A part holds a random share of what one study measured. Positions count from the first letter of the parent shown.

Study 1
Target: MAFG, bZIP domain (human)
Technique: DHFR protein complementation
Sample: yeast
Notes: single substitutions, most at no-binding floor
Baseline: wild-type JUN-FOS pair
Direction: higher = stronger binding
Endpoint: binding fitness
Parent: JUN, bZIP domain (human); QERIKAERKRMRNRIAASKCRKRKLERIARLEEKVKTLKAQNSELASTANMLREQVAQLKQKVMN; partner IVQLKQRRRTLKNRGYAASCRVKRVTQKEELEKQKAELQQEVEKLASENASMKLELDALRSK
Substitution = N42K; result = -0.95 natural log
Substitution = E32C; result = -1.53 natural log
Substitution = S47F; result = -1.53 natural log
Substitution = E54R; result = -1.5 natural log
Substitution = A49C; result = -1.45 natural log
Substitution = E54K; result = -1.56 natural log
Substitution = T37V; result = -1.4 natural log
Substitution = E44L; result = -1.36 natural log

Study 2
Target: Hepatocyte nuclear factor 3-alpha (Foxa1, Mus musculus, UniProt P35582, residues 1-468, full length assumed)
Technique: EMSA with sequencing
Molecule type: double-stranded DNA, one strand shown
Sample: in vitro
Concentration: 10 and 20 nM
Notes: whole designed probe, mean of two concentrations, ends assumed
Baseline: negative control set to 0
Direction: higher = stronger binding
Endpoint: normalised bound fraction
Residues (chain): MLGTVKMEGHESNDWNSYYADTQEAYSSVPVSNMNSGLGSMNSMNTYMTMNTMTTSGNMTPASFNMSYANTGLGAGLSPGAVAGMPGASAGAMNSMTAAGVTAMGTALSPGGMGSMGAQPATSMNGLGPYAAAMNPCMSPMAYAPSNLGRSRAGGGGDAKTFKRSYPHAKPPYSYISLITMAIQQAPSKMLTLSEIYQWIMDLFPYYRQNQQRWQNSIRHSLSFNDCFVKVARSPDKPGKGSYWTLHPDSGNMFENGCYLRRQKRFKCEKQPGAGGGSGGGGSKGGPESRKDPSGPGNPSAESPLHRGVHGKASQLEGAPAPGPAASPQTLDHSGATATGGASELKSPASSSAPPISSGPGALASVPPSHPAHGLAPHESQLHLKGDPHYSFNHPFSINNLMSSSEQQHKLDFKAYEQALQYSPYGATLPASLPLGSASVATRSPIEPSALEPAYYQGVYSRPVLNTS
Oligonucleotide = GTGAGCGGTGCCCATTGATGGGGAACTTATATCTAGGCTACAGCATGGAGATAATTGATACAAATATTTTCTTATCATCATGGTCCTCAAAGAAAGTACCAGGCCTAATTTGCAATCTAAGTAATCTTAAAAAGAAAGTTGTTTAGTAAAGCAATTTATTTCATAAGTCACTATTTCTTTCACCATAGCCATATACTATCTTATGCTTAGTAATGAATTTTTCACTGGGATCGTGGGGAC; result = -0.0298 ratio
Oligonucleotide = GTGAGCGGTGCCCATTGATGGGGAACTAATAATAATAGATCCTTATTATATTTATGGAAATCTATACTAATACTTAATATGGCCTTCTTTTCTTTGGTTTTTATAGCTGGGAAACTAAGTAAACATGAGAAACTTATCATGAGAAACTTCTCATGTCAGCCTCACTCATATACTACCCCTTCAACTTGCTGTAGAGTGTCAAAGATTAAAATCTCACTCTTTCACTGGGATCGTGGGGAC; result = 0.379 ratio
Oligonucleotide = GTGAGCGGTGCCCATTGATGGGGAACGATTAAATATAGGAAAGTATGTATAAACTTACGTGAATATGCCCTGTTACATTCTACAAATTAAAAGTTGATTAGCTTTCTTGTGATCCCCAAAGTAATCTTAAAAATGTATAAGCCTGAAATATTATCAATTAGAAAATATTTGGAGAAATTGCTTCTTAAAATATGGTAGAATATTTTAAGAAGCATTGTTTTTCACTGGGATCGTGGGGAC; result = 0.00383 ratio
Oligonucleotide = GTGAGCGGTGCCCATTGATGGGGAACTAATTAAGACATATCTAAAAGTATCAACAGTATCGGGAAGAAAACATGAAGTTCACATGATACCCCAATGCTTCTAGAAAAGTCACAAATGAGTAATCTAGGAATATTATAACTGATATGTGTGATTCAGATAAAGACTAGGGTGGTACATGAAAAATGGCTTAAGTCAAGGGTGTAATTGAGACTAGATCAATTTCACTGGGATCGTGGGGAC; result = -0.0161 ratio
Oligonucleotide = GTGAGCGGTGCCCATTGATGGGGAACTTACTTTGATTCTATTTTCAGATACTAGACCAAGCCATAATAACTAAACAAGTATCTCAACAAACATGGAGTTGTTCTTAAAATAAATTCCTTGTTTACACAGCGCTTTTCTCGAAAATAACTCCAAATGCTTTACAAAGACAAAATTCCACCATTAACGCTTTGATATATAGCAGTGAGAATATGTCACACCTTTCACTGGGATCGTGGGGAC; result = 0.454 ratio

Study 3
Target: Sal-like protein 4, full length isoform A (SALL4, Homo sapiens, UniProt Q9UJQ4, residues 1-1053)
UniProt Q9UJQ4, sequence (whole entry, looked up): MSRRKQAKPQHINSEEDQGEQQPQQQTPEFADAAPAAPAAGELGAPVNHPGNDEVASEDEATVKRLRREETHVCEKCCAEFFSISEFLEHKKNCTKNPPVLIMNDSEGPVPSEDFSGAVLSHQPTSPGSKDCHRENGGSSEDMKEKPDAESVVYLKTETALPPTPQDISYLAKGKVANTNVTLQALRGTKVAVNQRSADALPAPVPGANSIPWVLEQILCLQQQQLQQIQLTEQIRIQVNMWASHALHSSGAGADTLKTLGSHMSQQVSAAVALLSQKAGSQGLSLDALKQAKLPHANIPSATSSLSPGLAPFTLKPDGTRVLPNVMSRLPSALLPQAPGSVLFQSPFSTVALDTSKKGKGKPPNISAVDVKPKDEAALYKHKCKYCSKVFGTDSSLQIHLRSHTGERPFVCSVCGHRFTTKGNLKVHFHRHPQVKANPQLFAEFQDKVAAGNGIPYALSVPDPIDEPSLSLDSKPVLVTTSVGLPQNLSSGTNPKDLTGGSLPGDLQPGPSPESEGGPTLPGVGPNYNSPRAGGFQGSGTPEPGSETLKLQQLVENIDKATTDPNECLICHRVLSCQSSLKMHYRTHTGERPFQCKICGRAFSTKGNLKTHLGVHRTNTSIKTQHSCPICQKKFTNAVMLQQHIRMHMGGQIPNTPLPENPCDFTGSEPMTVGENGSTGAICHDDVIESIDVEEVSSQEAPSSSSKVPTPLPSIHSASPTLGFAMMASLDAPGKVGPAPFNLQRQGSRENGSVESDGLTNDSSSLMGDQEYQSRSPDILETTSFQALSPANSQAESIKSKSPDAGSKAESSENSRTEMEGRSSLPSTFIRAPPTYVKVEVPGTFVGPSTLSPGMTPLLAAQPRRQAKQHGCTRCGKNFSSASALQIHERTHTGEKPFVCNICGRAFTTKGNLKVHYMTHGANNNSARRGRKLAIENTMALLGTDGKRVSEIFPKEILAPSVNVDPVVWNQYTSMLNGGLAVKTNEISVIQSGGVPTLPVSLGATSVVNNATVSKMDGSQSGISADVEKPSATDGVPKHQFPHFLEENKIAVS
Technique: universal PBM
Molecule type: double-stranded DNA, one strand shown
Sample: in vitro
Concentration: 600 nM
Notes: 8-mer, flanks averaged, mean of replicates
Direction: higher = stronger binding
Endpoint: E-score
Oligonucleotide = AAGTACGG; result = -0.108
Oligonucleotide = AAGCCATT; result = 0.156
Oligonucleotide = GGTAGGAC; result = -0.2
Oligonucleotide = AGGGATTC; result = -0.17
Oligonucleotide = CGGCCTTA; result = -0.0748
Oligonucleotide = CAAGAAAG; result = 0.0371
Oligonucleotide = AAAGAAGA; result = 0.128
Oligonucleotide = GTCAAGGA; result = -0.167

Further values, each from its own experiment
Compound = CCNC(=O)Nc1ccc2c(cnn2-c2cc(C(C)=O)c(Cl)cc2Cl)c1; species = human; sample = microsomes or S9; concentration = 2 µM; time = 0.5 h; endpoint = remaining compound; result = > 100%

Some of these lines once more (study 2):
Oligonucleotide = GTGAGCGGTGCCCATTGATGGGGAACTAATAATAATAGATCCTTATTATATTTATGGAAATCTATACTAATACTTAATATGGCCTTCTTTTCTTTGGTTTTTATAGCTGGGAAACTAAGTAAACATGAGAAACTTATCATGAGAAACTTCTCATGTCAGCCTCACTCATATACTACCCCTTCAACTTGCTGTAGAGTGTCAAAGATTAAAATCTCACTCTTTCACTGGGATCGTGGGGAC; result = 0.379 ratio
Oligonucleotide = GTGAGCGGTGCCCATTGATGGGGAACGATTAAATATAGGAAAGTATGTATAAACTTACGTGAATATGCCCTGTTACATTCTACAAATTAAAAGTTGATTAGCTTTCTTGTGATCCCCAAAGTAATCTTAAAAATGTATAAGCCTGAAATATTATCAATTAGAAAATATTTGGAGAAATTGCTTCTTAAAATATGGTAGAATATTTTAAGAAGCATTGTTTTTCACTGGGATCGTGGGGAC; result = 0.00383 ratio
Oligonucleotide = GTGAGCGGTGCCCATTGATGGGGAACTAATTAAGACATATCTAAAAGTATCAACAGTATCGGGAAGAAAACATGAAGTTCACATGATACCCCAATGCTTCTAGAAAAGTCACAAATGAGTAATCTAGGAATATTATAACTGATATGTGTGATTCAGATAAAGACTAGGGTGGTACATGAAAAATGGCTTAAGTCAAGGGTGTAATTGAGACTAGATCAATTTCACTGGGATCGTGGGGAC; result = -0.0161 ratio
